# Published values collected from several papers.
# A part holds a random share of what one study measured. Positions count from the first letter of the parent shown.

# Sample 1
# Target: Hepatocyte nuclear factor 3-alpha (Foxa1, Mus musculus, UniProt P35582, residues 1-468, full length assumed)
# Method: EMSA with sequencing
# Molecule type: double-stranded DNA, one strand shown
# Medium: in vitro
# Concentration: 10 and 20 nM
# Notes: whole designed probe, mean of two concentrations, ends assumed
# Baseline: negative control set to 0
# Reading: higher = stronger binding
# Shared flanks, not repeated: GTGAGCGGTGCCCATTGATGGGGAAC … TTTCACTGGGATCGTGGGGAC
# Construct (chain): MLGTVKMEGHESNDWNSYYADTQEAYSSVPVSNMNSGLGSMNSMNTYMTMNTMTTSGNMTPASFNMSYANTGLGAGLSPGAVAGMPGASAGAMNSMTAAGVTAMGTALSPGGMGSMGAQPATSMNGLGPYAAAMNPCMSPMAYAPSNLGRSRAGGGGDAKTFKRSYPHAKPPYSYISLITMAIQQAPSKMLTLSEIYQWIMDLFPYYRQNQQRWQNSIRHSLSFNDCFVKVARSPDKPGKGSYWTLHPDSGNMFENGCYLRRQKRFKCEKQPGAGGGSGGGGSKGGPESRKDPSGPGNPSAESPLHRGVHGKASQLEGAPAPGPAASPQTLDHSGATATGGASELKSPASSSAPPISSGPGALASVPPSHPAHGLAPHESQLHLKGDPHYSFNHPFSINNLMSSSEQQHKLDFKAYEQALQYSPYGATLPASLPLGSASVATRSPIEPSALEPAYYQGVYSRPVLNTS
Strand,normalised bound fraction
CACTCGGCTCCCCAGAGGTCAGCGCACCCCAAGCCCAGAGGCCGGCTGGCCTCGGCACGTCTCACTCCACTATCTTCCCTCCTCCCTGAACTCAGATTACACAAGGCTGGTCTTGGCTCTGAGGCTGCTAGATTTTAAATGCAATCTCACTGGTGACTCACTGGTGCATCGTCATTTGGCTTTGCCTGGAATT,-0.0364 ratio
TGGAAAAAGATCCCCAAATGAAACTCCTAAAAATAAACCCTGCAATCACACTGGCATATGTGATCAGTATGAGATTTCATATTGTGCACCCCTGTTTACTCTGAGAATGTGCTTCTTAATGGTTCATGTATACATCATGGCTCTGCTCAAAGTCACTCCTGCAAGAAGCCCAGAGGCTTCTATCTGGAGGCTT,0.0684 ratio
TTGACTTAAGGCTTCCTCCCAGCCCCCTCTCAGCCTCTAGCAACATACAGATGGCGTCATTCAGCACCTTGAATCATTTGGACAGCAGCAAAAGCAATCTAGAAACTCACCAACAGTGAAGCTAAATTAGCTGTCAGGGCTGCAATTGTACAGAATGTGTGGAAGCCAAGAAATAGCACCAGGGCTAAGAAGC,-0.065 ratio
AATTTCCTGTGCTCTCTTTCCTGCCCTCATTCAAGTGGTCACCTTCCTTATTTCCCTCAGAAATACTCACAGAAGCTGTCAGAAGGGTTATGAGTCATCTCTCACGTGCTTGAACCCACATGTCTATCAGCCAACCTTGGTGTGGCTGGACCTCACATTCAGATTGCCCTTCTGTGATGGATGAACTTGTGTT,-0.0559 ratio
TTTTTTCTGTACAGGGAAAAATAGTGAATATTTCAAAAATGTGAATCAAAGAGTCTCTGTGGCAACTACTCATTGATGCATATCAGACAATATGCAAACAAATGAGTGTGTCTGTGTTCCAATAAAACTGTATTTACAAAAGCAGAAGGCCACCCATGTGCCAATGTCCAAAGTTTCTCAACCAACCCCTGGT,0.389 ratio

# Sample 2
# Target: Ras GTPase-activating protein-binding protein 1, full length (G3BP1, Homo sapiens, UniProt Q13283)
# UniProt Q13283, sequence (whole entry, looked up): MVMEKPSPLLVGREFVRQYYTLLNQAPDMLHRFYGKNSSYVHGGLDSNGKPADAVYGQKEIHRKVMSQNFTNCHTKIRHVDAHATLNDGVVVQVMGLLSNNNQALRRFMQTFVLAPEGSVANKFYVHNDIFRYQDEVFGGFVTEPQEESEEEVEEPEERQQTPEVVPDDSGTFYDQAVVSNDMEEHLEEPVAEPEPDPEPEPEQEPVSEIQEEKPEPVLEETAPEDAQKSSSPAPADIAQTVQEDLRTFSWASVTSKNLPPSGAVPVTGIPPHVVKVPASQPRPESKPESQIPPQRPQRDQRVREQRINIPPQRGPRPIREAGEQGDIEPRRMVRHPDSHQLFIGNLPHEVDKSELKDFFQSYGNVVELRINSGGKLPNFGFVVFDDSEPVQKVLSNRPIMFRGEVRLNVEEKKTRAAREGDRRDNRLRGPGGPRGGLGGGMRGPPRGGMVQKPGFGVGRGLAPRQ
# Method: RNA Bind-n-Seq
# Molecule type: RNA
# Medium: in vitro
# Concentration: 200 nM
# Notes: whole 134-nt RNA, ends assumed
# Added: 150 mM LiCl
# Baseline: input library
# Reading: higher = stronger binding
# Library: 7-deaza-guanosine replaces G
# Shared flanks, not repeated: GGGAGUUCUACAGUCCGACGAUC … UGGAAUUCUCGGGUGUCAAGG
Strand,log2 enrichment
CACAGACAACACGCACCCACACAGACACAGAGGGAAGGGGUUGGGAUGGGGACAGGGUGCACAGCAGGGCGAAAUAGGACCCCAGCCCCU,1.18
CACAGACAACACGCACCCACACAGACACAGAGGGAAGGGGUUGGGAUGGGGACAGGGUGCACAGCAGGGCGGAGUAGGACCCCAGCCCCU,0.0443
AGUCCUGUGCUACACAUCGUAUGUACCGAAUCGGGAAAAGGGGAAAAGGGAAAAGGGAAAGUAUUAUGUUACGCCGUUCGGAUCUGCACU,-0.556
CACAGACAACACGCACCCACACCGACACAGAGGGAAGGGGUUGGGAUGGGGACAGGGUGCACAGCAGGGCGGGGUAGGACCCCAGCCCCU,-0.283
UGGCCCUGGUGGCAUGCGGGGAGGAAGAGCUGGCCUCAUGGAUCGUGGUGGUCCCGGUGGAAUGUUCAGAGGUGGCCGUGGUGGAGACAG,0.298
CUCAAGUCCUGUGCUACACAUCGUAUGUACCGAAUCGGCGGGGCGGGGCGGGGAAAGUAUUAUGUUACGCCGUUCGGAUCUGCACUUCCA,0.27
CUCAAGUCCUGUGCUACACAUCGUAUGUACCGAAUCGGGGCCGGCCGGGCCGGAAAGUAUUAUGUUACGCCGUUCGGAUCUGCACUUCCA,0.625
AGUCCUGUGCUACACAUCGUAUGUACCGAAUCGGGGAAAAGGGGAAAAGGGAAAAGGGAAAGUAUUAUGUUACGCCGUUCGGAUCUGCAC,0.0952

# Sample 3
# Target: CCNB1, cyclin fold, Cln2 fusion (human)
# Method: yeast growth competition, sequencing
# Medium: yeast
# Notes: weak parent motif
# Baseline: not given
# Reading: higher = stronger binding
# Starting sequence: TICRR docking peptide (human); TKVRRNLFNQELL
Variant,normalised enrichment score
R5A,0.56
N9A,0.722
Q10A,-0.059
F8L,0.628
E11A,0.0132
T1A,1.14
L7A,0.0923

# Other studies, line by line
Molecule,target,assay,system,setting,how to read,quantity,result
"PhoQ, residues 284 288 289 292 302 303 AQGLTV","PhoP, residues 12 14 15 18 19 NQCAL (Escherichia coli, UniProt P23836)","Sort-seq, refers to: YFP reporter",E. coli,"PhoQ-PhoP variant library, added: 10 µM Mg2+","baseline: high Mg2+ state, higher = stronger signaling",fold induction,23.5

# Excerpt of the above (sample 1):
Strand,normalised bound fraction
CACTCGGCTCCCCAGAGGTCAGCGCACCCCAAGCCCAGAGGCCGGCTGGCCTCGGCACGTCTCACTCCACTATCTTCCCTCCTCCCTGAACTCAGATTACACAAGGCTGGTCTTGGCTCTGAGGCTGCTAGATTTTAAATGCAATCTCACTGGTGACTCACTGGTGCATCGTCATTTGGCTTTGCCTGGAATT,-0.0364 ratio
TGGAAAAAGATCCCCAAATGAAACTCCTAAAAATAAACCCTGCAATCACACTGGCATATGTGATCAGTATGAGATTTCATATTGTGCACCCCTGTTTACTCTGAGAATGTGCTTCTTAATGGTTCATGTATACATCATGGCTCTGCTCAAAGTCACTCCTGCAAGAAGCCCAGAGGCTTCTATCTGGAGGCTT,0.0684 ratio
